{"data": "Published values pooled from the literature", "target": "Voltage-gated inwardly rectifying potassium channel KCNH2 (KCNH2, Homo sapiens, UniProt Q12809)", "note": "Lines come from different studies, so protocols differ. Several values in a cell are separate wells, animals, samples, runs or records. Numbers after ± are the reported error.", "sequence of UniProt Q12809 (whole entry, looked up)": "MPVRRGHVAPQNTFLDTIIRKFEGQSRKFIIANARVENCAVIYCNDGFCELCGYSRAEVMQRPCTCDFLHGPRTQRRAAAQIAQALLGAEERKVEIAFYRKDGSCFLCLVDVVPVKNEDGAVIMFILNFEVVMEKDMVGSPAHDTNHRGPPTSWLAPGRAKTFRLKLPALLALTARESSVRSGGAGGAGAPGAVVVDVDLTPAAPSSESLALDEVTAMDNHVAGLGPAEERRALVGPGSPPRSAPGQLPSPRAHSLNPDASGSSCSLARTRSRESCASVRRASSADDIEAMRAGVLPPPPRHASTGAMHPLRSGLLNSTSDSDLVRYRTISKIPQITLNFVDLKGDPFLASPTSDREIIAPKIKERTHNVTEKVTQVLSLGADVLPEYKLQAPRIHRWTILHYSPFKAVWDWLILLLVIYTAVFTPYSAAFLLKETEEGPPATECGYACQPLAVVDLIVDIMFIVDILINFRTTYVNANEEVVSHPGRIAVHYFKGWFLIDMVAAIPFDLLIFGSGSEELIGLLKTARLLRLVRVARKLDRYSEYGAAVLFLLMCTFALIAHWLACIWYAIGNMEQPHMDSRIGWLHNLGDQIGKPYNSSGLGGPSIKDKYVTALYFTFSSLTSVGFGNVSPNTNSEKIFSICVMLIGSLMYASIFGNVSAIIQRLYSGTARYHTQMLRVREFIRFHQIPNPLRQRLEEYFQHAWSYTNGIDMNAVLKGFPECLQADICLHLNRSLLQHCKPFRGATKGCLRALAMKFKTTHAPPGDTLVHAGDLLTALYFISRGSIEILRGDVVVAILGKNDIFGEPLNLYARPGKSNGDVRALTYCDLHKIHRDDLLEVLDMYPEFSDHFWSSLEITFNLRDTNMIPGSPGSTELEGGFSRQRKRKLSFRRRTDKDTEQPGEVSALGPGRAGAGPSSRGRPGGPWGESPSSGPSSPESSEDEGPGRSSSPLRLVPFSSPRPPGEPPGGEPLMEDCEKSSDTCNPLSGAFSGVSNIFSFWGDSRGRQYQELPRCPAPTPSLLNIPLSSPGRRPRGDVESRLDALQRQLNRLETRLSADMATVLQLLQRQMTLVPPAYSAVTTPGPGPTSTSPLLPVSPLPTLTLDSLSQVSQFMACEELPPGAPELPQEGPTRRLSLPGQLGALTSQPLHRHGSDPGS"}
{"Compound": "CN1CCC(CNc2ccc3ncc(-c4cccc(OC(F)(F)F)c4)n3n2)CC1", "test": "blocker, thallium flux", "setting": "10 µM, 30 min", "how to read": "relative to: control", "quantity": "response", "value": "> 50%"}
{"Compound": "Cc1cnc(N2CC3(CCOCC3)C2)c(C(=O)Nc2ccc(C(=O)N3CCc4cc(C(=O)Nc5c(C)cccc5F)sc4-c4ccccc43)cc2)c1", "test": "inhibitor, patch clamp", "setting": "concentration not given", "quantity": "hERG current", "value": "no inhibition"}
{"Compound": "c1cncc(OC[C@@H]2CN(CCN3CCc4ccccc43)CCO2)c1", "test": "potassium current inhibition, inhibitor, PatchXpress electrophysiology", "quantity": "Hill slope", "value": 1}
{"Compound": "Cn1cc2c(C(=O)O)ccc(NS(=O)(=O)c3ccc(OCC4CCC4)c(Cl)c3)c2n1", "test": "binding", "quantity": "Ki", "value": "> 80 µM"}
{"Compound": "COc1cc2c(cc1OC)C(=O)N(CCCCN1CCN(c3ccccc3OC)CC1)C2", "test": "potassium current inhibition, inhibitor, PatchXpress electrophysiology", "quantity": "Emax", "value": "89.8 ± 4.6%"}
{"Compound": "CCOc1cc(-c2nncn2C)ccc1Nc1ncc2cc(C)nc(NCC(C)(C)C)c2n1", "setting": "1 µM", "quantity": "inhibition", "value": "14.1%"}
{"Compound": "CC1(F)CN(C(=O)Cn2c(=O)c(C(=O)NCc3ccc(Cl)cc3)cc3nc(N4CCCC4=O)cnc32)C1", "how to read": "relative to: hERG IC50 over antiviral EC50", "quantity": "therapeutic index", "value": "> 235"}
{"Compound": "CC(C)c1noc2ncc(C(=O)c3ccccc3O)cc12", "test": "ion current, inhibitor, whole-cell patch clamp", "system": "HEK293T transfected", "setting": "10 µM, pH 7.4", "quantity": "inhibition", "value": "8.3% and 9.7% and 8.2% and 5.8% and 10.7%"}
{"Compound": "NC/C(=C\\F)COc1cccc(Cn2c(=S)[nH]c(=O)c3[nH]cnc32)c1", "test": "ion current", "setting": "10 µM", "quantity": "inhibition", "value": "< 50%"}
{"Compound": "CC(C)(C)NCc1ccc(Nc2ccnc3cc(Cl)ccc23)cc1O", "test": "thallium flux, blocker", "setting": "30 min", "quantity": "IC50", "value": "95.3 µM"}
{"Compound": "CNCCN1CCN(c2cnc3c(cc(C(=O)NCc4ccc(Cl)cc4)c(=O)n3CC(=O)N3CC(C)(F)C3)n2)C1=O.Cl", "how to read": "relative to: hERG IC50 over antiviral EC50", "quantity": "therapeutic index", "value": "> 190 and > 120"}
{"Compound": "CN(C(=O)n1cnc(-c2ccc[n+]([O-])c2)c1)C1CCCCC1", "setting": "10 µM", "quantity": "inhibition", "value": "19.1%"}
{"Compound": "Cc1ccc2c(c1)C(=O)[C@]1(O)CCN(c3ccc4nc(C)ccc4c3)C1=N2.Cl", "test": "ion channel panel", "system": "human cells", "setting": "concentration not given", "quantity": "inhibition", "value": "< 25%"}
{"Compound": "O=C(Nc1ccc(S(=O)(=O)N2CCC(Cl)CC2)cc1)c1ccc([N+](=O)[O-])o1", "setting": "10 µM, 60 min, pH 7.4", "quantity": "inhibition", "value": "32%"}
{"Compound": "CC1(F)CN(C(=O)Cn2c(=O)c(C(=O)NCc3ccc(Cl)cc3)cc3nccnc32)C1", "how to read": "relative to: hERG IC50 over antiviral EC50", "quantity": "therapeutic index", "value": 1.6}
{"Compound": "Clc1cncc(OC[C@@H]2CN(CCN3CCc4ccccc43)CCO2)c1", "test": "potassium current inhibition, inhibitor, PatchXpress electrophysiology", "quantity": "Emax", "value": "89.9 ± 10%"}
{"Compound": "CC1(F)CN(C(=O)Cn2c(=O)c(C(=O)NCc3ccc(Cl)cc3)cc3nc(N4CCOC4=O)cnc32)C1", "how to read": "relative to: hERG IC50 over antiviral EC50", "quantity": "therapeutic index", "value": 19}
{"Compound": "Cc1cc(/C=C/C#N)cc(C)c1Nc1ccnc(Nc2ccc(C#N)cc2)n1", "test": "hERG current, manual patch clamp", "system": "CHO stably expressing hERG", "setting": "3 µM", "quantity": "inhibition", "value": "74.8%"}
{"Compound": "CN(C)c1ccc2cc(C(=O)NS(=O)(=O)c3ccccc3-c3ccccc3)oc2c1", "test": "automated patch clamp", "setting": "concentration not given", "quantity": "hERG inhibition", "value": "negative"}
{"Compound": "CN(C)C(=O)CN1CCN(c2cnc3c(cc(C(=O)NCc4ccc(Cl)cc4)c(=O)n3CC(=O)N3CC(C)(F)C3)n2)C1=O", "how to read": "relative to: hERG IC50 over antiviral EC50", "quantity": "therapeutic index", "value": "> 48"}
{"Compound": "Cc1ccc(C(=O)Nc2ccc3ccccc3c2)o1", "test": "ion current, whole-cell patch-clamp", "system": "HEK-293T", "setting": "10 µM", "quantity": "inhibition", "value": "13.7%"}
{"Compound": "O=C1c2ccccc2CCCN1CCCCN1CCN(c2ccccn2)CC1", "test": "potassium current inhibition, inhibitor, PatchXpress electrophysiology", "quantity": "Hill slope", "value": 1}
{"Compound": "CC1(C)CN(C(=O)Cn2c(=O)c(C(=O)NCc3ccc(Cl)cc3)cc3nccnc32)C1", "test": "ion current, inhibitor", "quantity": "Hill slope", "value": 0.76}
{"Compound": "O=C(c1ccc(F)cc1)N(Cc1ccccc1)C1CCCCC1", "setting": "10 µM", "quantity": "inhibition", "value": "24%"}
{"Compound": "Cc1ccc2c(c1)nc(/C=C/c1cccc3cccnc13)n2-c1cccc(OCCCN2CCN(C)CC2)c1.Cl", "test": "tail current, inhibitor", "quantity": "Hill slope", "value": 1.27}
{"Compound": "O=C1c2ccccc2CCN1CCCCN1CCN(c2ccccn2)CC1", "test": "potassium current inhibition, inhibitor, PatchXpress electrophysiology", "quantity": "Hill slope", "value": "0.65 ± 0.14"}
{"Compound": "CC1(F)CN(C(=O)Cn2c(=O)c(C(=O)NCc3ccc(Cl)cc3)cc3nc(N4CCN(CC(=O)O)C4=O)cnc32)C1", "test": "ion current, inhibitor", "quantity": "Hill slope", "value": 0.5}
{"note": "Some of these lines once more:"}
{"Compound": "CC(C)c1noc2ncc(C(=O)c3ccccc3O)cc12", "test": "ion current, inhibitor, whole-cell patch clamp", "system": "HEK293T transfected", "setting": "10 µM, pH 7.4", "quantity": "inhibition", "value": "8.3% and 9.7% and 8.2% and 5.8% and 10.7%"}
{"Compound": "CCOc1cc(-c2nncn2C)ccc1Nc1ncc2cc(C)nc(NCC(C)(C)C)c2n1", "setting": "1 µM", "quantity": "inhibition", "value": "14.1%"}
{"Compound": "Cc1cnc(N2CC3(CCOCC3)C2)c(C(=O)Nc2ccc(C(=O)N3CCc4cc(C(=O)Nc5c(C)cccc5F)sc4-c4ccccc43)cc2)c1", "test": "inhibitor, patch clamp", "setting": "concentration not given", "quantity": "hERG current", "value": "no inhibition"}
{"Compound": "CN(C(=O)n1cnc(-c2ccc[n+]([O-])c2)c1)C1CCCCC1", "setting": "10 µM", "quantity": "inhibition", "value": "19.1%"}
